Assay results collected from several papers.
Parts stem from different laboratories: compare values within a part only. Positions count from the first letter of the parent shown.

Series 1
Target: Ras GTPase-activating protein-binding protein 1, C-terminal RGG region (G3BP1, Homo sapiens, UniProt Q13283)
Chain of UniProt Q13283 (whole entry, looked up): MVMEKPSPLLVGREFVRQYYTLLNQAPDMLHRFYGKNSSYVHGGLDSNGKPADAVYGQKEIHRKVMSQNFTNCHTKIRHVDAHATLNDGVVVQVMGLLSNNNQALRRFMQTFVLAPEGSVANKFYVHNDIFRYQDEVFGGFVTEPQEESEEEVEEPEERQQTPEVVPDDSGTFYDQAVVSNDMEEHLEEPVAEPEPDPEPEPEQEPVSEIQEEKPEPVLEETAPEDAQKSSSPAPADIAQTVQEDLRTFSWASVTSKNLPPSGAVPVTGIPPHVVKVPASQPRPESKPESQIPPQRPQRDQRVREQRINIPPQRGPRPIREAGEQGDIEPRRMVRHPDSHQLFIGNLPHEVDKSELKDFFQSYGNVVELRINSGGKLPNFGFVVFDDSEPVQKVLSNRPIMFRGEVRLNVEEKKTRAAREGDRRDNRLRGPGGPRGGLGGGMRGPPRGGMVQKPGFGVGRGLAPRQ
Method: RNA Bind-n-Seq
Form: RNA
Sample: in vitro
Tested at: 1 µM
Setting: whole 134-nt RNA, ends assumed
Together with: 150 mM KCl
Baseline: input library
Reading: higher = stronger binding
Shared flanks, not repeated: GGGAGUUCUACAGUCCGACGAUC … UGGAAUUCUCGGGUGUCAAGG
Strand | log2 enrichment
AAGUCCUGUGCUACACAUCGUAUGUACCGAAUCGGGGCCCGGGCCCGGGGCCCGGGAAAGUAUUAUGUUACGCCGUUCGGAUCUGCACUU | -2.6
CUCAAGUCCUGUGCUACACAUCGUAUGUACCGAAUCGGUGGUGGAAAAAAAGGAAAGUAUUAUGUUACGCCGUUCGGAUCUGCACUUCCA | -1.07
CACAGACAACACGCACCCACACAGACACAGAGGGAAGGGGUUGGGAAAGGGACAGGGUGCACAGCAGGGCGGGGUAGGACCCCAGCCCCU | -0.182
UCAAGUCCUGUGCUACACAUCGUAUGUACCGAAUCGGGAAAGGGAGGGAAAGGGAAAGUAUUAUGUUACGCCGUUCGGAUCUGCACUUCC | 1.79
UCAAGUCCUGUGCUACACAUCGUAUGUACCGAAUCGGCCCGGCCCGGGGCCCGGGAAAGUAUUAUGUUACGCCGUUCGGAUCUGCACUUC | -1.38
UCCUCAAGUCCUGUGCUACACAUCGUAUGUACCGAAUCGGAGGAGGGGAGGGAAAGUAUUAUGUUACGCCGUUCGGAUCUGCACUUCCAG | -0.542
GCAGGAAGUAAAAACAAAUGGAAAUGCUUCGGAUAGUGGCAGGGGUGGGGGUUGCUAAGGAAAGGGUGGUAUGGGAGUGGGUAAAGAGUU | 2.2
UCAAGUCCUGUGCUACACAUCGUAUGUACCGAAUCGGUUUGGUUUUUUUGGUGGAAAGUAUUAUGUUACGCCGUUCGGAUCUGCACUUCC | -0.994
GUCCUGUGCUACACAUCGUAUGUACCGAAUCGGGUUUUUGGGUUUUUUUGGGAAAGGGAAAGUAUUAUGUUACGCCGUUCGGAUCUGCAC | -0.492

Series 2
Target: ABI1, truncated, D143A, DHFR fusion (Arabidopsis thaliana)
Method: DHFR PCA, deep sequencing
Sample: yeast
Setting: methotrexate growth selection, single substitutions
Together with: (+)-ABA 4.8 µM
Baseline: wild-type fitted maximum
Reading: higher = stronger binding
Starting sequence: PYL1, truncated, DHFR fusion (Arabidopsis thaliana); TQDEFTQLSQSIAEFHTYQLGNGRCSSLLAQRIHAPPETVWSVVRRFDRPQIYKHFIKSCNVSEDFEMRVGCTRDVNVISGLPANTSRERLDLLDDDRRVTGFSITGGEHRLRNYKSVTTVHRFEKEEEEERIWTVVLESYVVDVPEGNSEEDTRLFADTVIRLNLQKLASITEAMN
Change | relative binding score [%]
E129V | 66.1
R45W | -9.38
E131W | 39.3
S63V | 61.1
T73Y | 80.4
H55P | 103
V76T | 18.9
P37T | 35.6
H34K | 72
I79G | -0.291
H55C | 86.6
H110F | 5.86
T73Q | 62.2

Series 3
Target: CCNE1, cyclin fold, Cln2 fusion (human)
Method: yeast growth competition, sequencing
Sample: yeast
Setting: strong parent motif
Baseline: not given
Reading: higher = stronger binding
Starting sequence: RBL2 docking peptide (human); STTRRRLFVENDS; partner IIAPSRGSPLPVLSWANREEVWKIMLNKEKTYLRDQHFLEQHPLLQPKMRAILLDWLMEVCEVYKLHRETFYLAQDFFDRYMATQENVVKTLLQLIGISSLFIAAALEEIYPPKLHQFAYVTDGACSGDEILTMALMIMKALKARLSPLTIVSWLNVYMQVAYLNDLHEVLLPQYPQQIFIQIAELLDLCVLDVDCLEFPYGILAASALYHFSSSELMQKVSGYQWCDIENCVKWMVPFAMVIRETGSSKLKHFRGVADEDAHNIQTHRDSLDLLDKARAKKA
Change | normalised enrichment score
E10Y | 2.35
R4K | 5.64
N11D | 6.64
R6K | 5.53
S1A | 5.37
D12I | 5.04
R5C | 0.207
V9G | 3.85
R6M | 2.61
D12E | 5.28
V9N | 5.61
S13W | 5.54
T3D | 0.521
T2K | 6.88
L7M | 0.0405
T2G | 6.27

Series 4
Target: RING finger protein unkempt homolog, zinc fingers 1-6, GST-SBP tag (UNK, Homo sapiens, UniProt Q9C0B0, residues 30-357)
Method: RNA Bind-n-Seq
Form: RNA
Sample: in vitro
Tested at: not given
Setting: RNA with constant flanks, human and mouse sites, ends assumed
Baseline: input RNA pool
Reading: higher = stronger binding
Shared flanks, not repeated: GGGAGUUCUACAGUCCGACGAUC … CAACAGAGGAUUGAGCAUCA
Target sequence (chain): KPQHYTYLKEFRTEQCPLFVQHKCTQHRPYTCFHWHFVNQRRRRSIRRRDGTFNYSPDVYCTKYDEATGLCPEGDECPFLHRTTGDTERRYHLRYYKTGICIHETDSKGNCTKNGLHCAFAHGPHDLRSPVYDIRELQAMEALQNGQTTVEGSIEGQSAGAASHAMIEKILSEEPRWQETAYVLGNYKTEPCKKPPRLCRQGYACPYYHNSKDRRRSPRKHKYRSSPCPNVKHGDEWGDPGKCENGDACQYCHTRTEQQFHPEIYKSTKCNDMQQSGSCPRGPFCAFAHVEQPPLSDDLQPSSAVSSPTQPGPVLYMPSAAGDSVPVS
Strand | bound/input enrichment
AGAUAAACUGUCCAUUCUUUCAUUUGGAAGCUAAUUAUGUAGACCAUUUAAAUGGAUAUUAUAGAUGACAACUUAAUACAAUGUUUUCUCUAGGCCUAAAGAUGUCGGAAGACCCAAGGC | 1.06 ratio
CAUAGUACUACUGGAAUGCUCAAUCAGUUAUUUUUGGUGUGGCAUACUUCAGAGCUGGCCUGUCCGUCUGAAGAACCCUUUCUCUCACAAUUACAGUUUGCAUGACUAGAACCCGGAACU | 0.449 ratio
GGAGGAUCAUCUGAGAAGGGAAGAACCAAAAGAGAAUUUAUAUGUUCUAUAUGUGGAAGGACAUUACCUAAAUUAUACUCUCUCCGCAUACAUAUGCUAAAGCACACGGGUGUAAAGCCG | 0.146 ratio
AAUGAUGUUGAAGUCAAAUGGAUUGAAUACCAGAAUAUGGUGAACUACCUCAUCCAAUGGAUUAGACACCAUGUGACCACAAUGUCUGAGAGAACAUUUCCUAAUAAUCCUGUAGAACUG | 0.31 ratio
CAGCUAAUCCAAAGGGAGUUUCAGACCAGUGCAAUCAGCAGAGACAUUGAUACUGCUGCCAAAUUUAUUGGUGCAGGUGCUGCAACAGUAGGAGUGGCUGGUUCUGGUGCUGGUAUUGGA | 0.136 ratio
GUUCAGGAGCCCUGGAAAGGAGAAGGAAUAAGACGACAGGAGGAAGAGAGAGAGAGGGUAGAAUGGAAGAGUCUCACUUCAAUUCUAACCCGUACUUCUGGCCUUCUAUCCCCACAGUCU | 0.101 ratio
GAGGCCCUGCAGUGGCGUGAUUCCCUGGACAAACUCCUGCAGAACAACUAUGGACUUGCCAGUUUCAAAAGUUUCCUGAAGUCUGAAUUCAGUGAGGAAAACCUUGAGUUCUGGAUUGCC | 0.0461 ratio
UUUUUUUUAAAAUAGAAAAUAAAUCUGACAACAAAUACUUUAAAAAUUGUAAAUAGUUUUUAGUUUUACGACUUAAAGUGUUUUGAUGGGGAAAGUUGAUUGAAACUAUAACUGGUUUUA | 6.52 ratio

Repeated from above (series 3):
Change | normalised enrichment score
N11D | 6.64
R6K | 5.53
S1A | 5.37
D12I | 5.04
R5C | 0.207
V9G | 3.85
R6M | 2.61
D12E | 5.28
